Measured values of several laboratories.
Lines come from different studies, so protocols differ. ± gives the spread as reported.

SMILES | test | system | conditions | quantity | value
NCCN(CC(=O)O)C(=O)Cn1cnc2c(=O)[nH]c(N)nc21 | IAM chromatography |  | pH 7.0, 30 °C, extrapolated to 0% acetonitrile | log kW IAM | -0.73
N#C[C@@H]1CC(F)(F)CN1C(=O)CNC(=O)c1ccnc2c(NC(=O)[C@@H](N)CCCCNC(=O)CCOCCOCCOCCOCCOCCOCCNC(=O)CN3CCN(CC(=O)[O-])CCN(CC(=O)[O-])CCN(CC(=O)[O-])CC3)cccc12.[177Lu+3] |  | octanol/PBS | pH 7.4, 177Lu-labelled | log P | -2.24 ± 0.12
Fc1cccc(-c2cc3cn[nH]c3nn2)c1F | IAM.PC.DD2 HPLC |  | pH 7.4 | log k(IAM) | 1.99
CCCCC[C@@H]1OC(=O)[C@@H](C)N(C)C(=O)[C@H](CCCCC)OC(=O)[C@@H](C)N(C)C(=O)[C@H](CCCCC)N(C)C(=O)[C@@H](C)N(C)C(=O)[C@H](CCCCC)OC(=O)[C@@H](C)N(C)C1=O | PAMPA, HPLC-UV |  | 500 µM, pH 7.4 | log Papp | -5.22 ± 0.05
CC[P+](c1ccccc1)(c1ccccc1)c1ccccc1 | HPLC | octanol/water | 100 µM | log P | -1.36
CCCCC[C@@H]1OC(=O)[C@@H](C)N(C)C(=O)[C@H](CCCCC)OC(=O)[C@@H](C)NC(=O)[C@H](CCCCC)OC(=O)[C@@H](C)N(C)C(=O)[C@H](CCCCC)OC(=O)[C@@H](C)NC1=O | PAMPA, HPLC-UV |  | 500 µM, pH 7.4 | log Papp | -5.94 ± 0.02
N#C[C@@H]1CC(F)(F)CN1C(=O)CNC(=O)c1ccnc2c(NC(=O)CCOCCOCCOCCOCCOCCOCCNC(=O)[C@H](CCCCNC(=O)CN3CCN(CC(=O)[O-])CCN(CC(=O)[O-])CCN(CC(=O)[O-])CC3)NC(=O)CCCc3ccc(I)cc3)cccc12.[177Lu+3] |  | octanol/PBS | pH 7.4, 177Lu-labelled | log P | -1.22 ± 0.32
c1n[nH]c2nnc(N3CCCCC3)cc12 | IAM.PC.DD2 HPLC |  | pH 7.4 | log k(IAM) | 2.56
O=C(O)C(Cc1c[nH]cn1)N1C(=O)c2ccc3c4ccc5c6c(ccc(c7ccc(c2c37)C1=O)c64)C(=O)N(C(Cc1c[nH]cn1)C(=O)O)C5=O (centres unmarked) | shake-flask | 1-octanol/phosphate buffer | pH 7.0 | log D | -2.22 ± 0.06
O=C([O-])CN1CCN(CC(=O)[O-])CCN(CC(O)CN(CC(O)CN2CCN(CC(=O)[O-])CCN(CC(=O)[O-])CCN(CC(=O)[O-])CC2)C[C@H](O)[C@@H](O)[C@H](O)[C@H](O)CO)CCN(CC(=O)[O-])CC1.[Gd+3] (some centres unmarked) | pH-potentiometry, measured: Gd(LH-1)M, M = Zn2+ |  | 25 °C, 0.15 M NaCl | log K | 10.3
CNC(=O)C1CCCN(C(=O)C2CC3CCC2N3C(=O)[C@@H]2C[C@@H](O)CN2C(=O)NCc2cccc(Cl)c2F)C1 (mixture of isomers) | shake-flask octanol/buffer |  | pH 7.4 | log D | 3.9
Oc1cccc(-c2cccc(O)n2)n1.[Cl-].[Cl-].[Ru+2].c1ccc(-c2ccnc3c2ccc2c(-c4ccccc4)ccnc23)cc1.c1ccc(-c2ccnc3c2ccc2c(-c4ccccc4)ccnc23)cc1 |  |  | pH 7.4 | log D octanol/water | > 3
O=C([O-])CN1CCN(CC(=O)O)C[C@H](Cc2ccc(NC(=S)NCCCCC(NC(=O)CCCCCCC(=O)NCCCC[C@H](NC(=O)N[C@@H](CCC(=O)O)C(=O)O)C(=O)O)C(=O)O)cc2)N(CC(=O)[O-])Cc2cccc(n2)C1.[64Cu+2] (some centres unmarked) |  | octanol/water |  | log P | -1.42
O=C(O)CN1CCN(CC(=O)O)CCN(Cc2cccc(P(=O)(O)O)n2)CC1 | potentiometric titration |  | second phosphonate deprotonation | log Ka | 7.09
CCCCC[C@@H]1OC(=O)[C@@H](C)N(C)C(=O)[C@H](CCCCC)OC(=O)[C@@H](C)N(C)C(=O)[C@H](CCCCC)OC(=O)[C@@H](C)NC(=O)[C@H](CCCCC)OC(=O)[C@@H](C)NC1=O | PAMPA, HPLC-UV |  | 500 µM, pH 7.4 | log Papp | -5.31 ± 0.03
CN(CCNCc1ccncc1[O-])CCNCc1ccncc1[O-].[Cl-].[Fe+3] | pendant hydroxypyridine nitrogen protonation, UV-vis titration |  |  | log K | 5.2
CCCCC[C@@H]1OC(=O)[C@@H](C)N(C)C(=O)[C@H](CCCCC)OC(=O)[C@@H](C)NC(=O)[C@H](CCCCC)OC(=O)[C@@H](C)NC(=O)[C@H](CCCCC)OC(=O)[C@@H](C)NC1=O | PAMPA |  | 500 µM, pH 7.4, UV/ELSD/MS detection | log Papp | -5.93
FC(F)(F)c1cc2nc(c1)CNCc1cc(C(F)(F)F)cc(n1)CNC2 | protonation constant, potentiometry |  | 298 K, ionic strength 0.15 M NaCl | log K2 | 6.2
O=C1c2ccc3c4ccc5c6c(ccc(c7ccc(c2c37)C(=O)N1CCN1CCCCC1)c64)C(=O)N(CCN1CCCCC1)C5=O | shake-flask | 1-octanol/phosphate buffer | pH 6.0 | log D | -2.23 ± 0.24
Clc1cc2nc(c1)CNCc1cc(Cl)cc(n1)CNC2 | protonation constant, potentiometry |  | 298 K, ionic strength 0.15 M NaCl | log K2 | 6.2
O=C(O)CN1CCN(Cc2cccc(C(=O)O)n2)CCN(CP(=O)(O)O)CC1 | potentiometric titration |  | aliphatic carboxylate deprotonation | log Ka | 3.22
CCCCC[C@@H]1OC(=O)[C@@H](C)N(C)C(=O)[C@H](CCCCC)N(C)C(=O)[C@@H](C)N(C)C(=O)[C@H](CCCCC)OC(=O)[C@@H](C)N(C)C(=O)[C@H](CCCCC)N(C)C(=O)[C@@H](C)N(C)C1=O | PAMPA |  | 500 µM, pH 7.4, UV/ELSD/MS detection | log Papp | -5.49
c1ccc(CN2CCCNCCNCCCNCC2)nc1 | potentiometry | aqueous 1.0 M KCl | 25 °C, L + H+ to HL | log overall protonation constant | 11.5
Cc1cn(CC(=O)N(CCN)CC(=O)O)c(=O)[nH]c1=O | IAM chromatography |  | pH 7.0, 30 °C, extrapolated to 0% acetonitrile | log kW IAM | -0.73
CCCCC[C@@H]1OC(=O)[C@@H](C)NC(=O)[C@H](CCCCC)OC(=O)[C@@H](C)NC(=O)[C@H](CCCCC)OC(=O)[C@@H](C)NC(=O)[C@H](CCCCC)OC(=O)[C@@H](C)NC1=O | PAMPA |  | 500 µM, pH 7.4 | log Papp | 2.82 ×10⁻⁶ cm/s
O=C(O)c1cccc(CN2Cc3cccc(n3)CN(Cc3cccc(C(=O)O)n3)Cc3cccc(n3)C2)n1 | potentiometric titration | 0.16 M NaCl | 25 °C | log KHL | 9.84
CCCCC[C@@H]1OC(=O)[C@@H](C)N(C)C(=O)[C@H](CCCCC)OC(=O)[C@@H](C)N(C)C(=O)[C@H](CCCCC)OC(=O)[C@@H](C)N(C)C(=O)[C@H](CCCCC)OC(=O)[C@@H](C)NC1=O | PAMPA, HPLC-UV |  | 500 µM, pH 7.4 | log Papp | -5.27 ± 0.04
O=C(O)CN1CCN(CC(=O)O)CCN(CC(O)CN(CC(O)CN2CCN(CC(=O)O)CCN(CC(=O)O)CCN(CC(=O)O)CC2)C[C@H](O)[C@@H](O)[C@H](O)[C@H](O)CO)CCN(CC(=O)O)CC1 (some centres unmarked) | pH-potentiometry | 0.15 M NaCl | 25 °C | log K Ca2(HL) | 5.25
NCCN(CC(=O)O)C(=O)Cn1cnc2c(NC(=O)OCc3ccccc3)ncnc21 | IAM chromatography |  | pH 7.0, 30 °C, extrapolated to 0% acetonitrile | log kW IAM | 0.62
